Measurements of several laboratories.
Compare with care: the assays were run in different laboratories. Numbers after ± are the reported error.
CYP3A4: Cytochrome P450 3A4 (CYP3A4, Homo sapiens, UniProt P08684)
Chain of UniProt P08684 (whole entry, looked up): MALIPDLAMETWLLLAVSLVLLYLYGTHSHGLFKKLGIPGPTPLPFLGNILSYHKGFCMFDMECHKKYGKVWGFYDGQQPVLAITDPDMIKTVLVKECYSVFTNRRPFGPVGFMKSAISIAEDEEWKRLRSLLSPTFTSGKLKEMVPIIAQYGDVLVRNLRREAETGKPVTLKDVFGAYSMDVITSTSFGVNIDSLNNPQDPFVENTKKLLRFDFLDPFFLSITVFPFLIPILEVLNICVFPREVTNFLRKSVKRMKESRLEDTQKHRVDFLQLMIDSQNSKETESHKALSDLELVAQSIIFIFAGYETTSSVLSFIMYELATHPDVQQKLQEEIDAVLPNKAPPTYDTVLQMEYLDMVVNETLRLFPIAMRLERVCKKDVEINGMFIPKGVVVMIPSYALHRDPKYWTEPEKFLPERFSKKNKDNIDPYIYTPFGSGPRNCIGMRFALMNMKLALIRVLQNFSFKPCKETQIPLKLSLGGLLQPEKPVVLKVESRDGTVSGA
Chain of UniProt P35869 (whole entry, looked up): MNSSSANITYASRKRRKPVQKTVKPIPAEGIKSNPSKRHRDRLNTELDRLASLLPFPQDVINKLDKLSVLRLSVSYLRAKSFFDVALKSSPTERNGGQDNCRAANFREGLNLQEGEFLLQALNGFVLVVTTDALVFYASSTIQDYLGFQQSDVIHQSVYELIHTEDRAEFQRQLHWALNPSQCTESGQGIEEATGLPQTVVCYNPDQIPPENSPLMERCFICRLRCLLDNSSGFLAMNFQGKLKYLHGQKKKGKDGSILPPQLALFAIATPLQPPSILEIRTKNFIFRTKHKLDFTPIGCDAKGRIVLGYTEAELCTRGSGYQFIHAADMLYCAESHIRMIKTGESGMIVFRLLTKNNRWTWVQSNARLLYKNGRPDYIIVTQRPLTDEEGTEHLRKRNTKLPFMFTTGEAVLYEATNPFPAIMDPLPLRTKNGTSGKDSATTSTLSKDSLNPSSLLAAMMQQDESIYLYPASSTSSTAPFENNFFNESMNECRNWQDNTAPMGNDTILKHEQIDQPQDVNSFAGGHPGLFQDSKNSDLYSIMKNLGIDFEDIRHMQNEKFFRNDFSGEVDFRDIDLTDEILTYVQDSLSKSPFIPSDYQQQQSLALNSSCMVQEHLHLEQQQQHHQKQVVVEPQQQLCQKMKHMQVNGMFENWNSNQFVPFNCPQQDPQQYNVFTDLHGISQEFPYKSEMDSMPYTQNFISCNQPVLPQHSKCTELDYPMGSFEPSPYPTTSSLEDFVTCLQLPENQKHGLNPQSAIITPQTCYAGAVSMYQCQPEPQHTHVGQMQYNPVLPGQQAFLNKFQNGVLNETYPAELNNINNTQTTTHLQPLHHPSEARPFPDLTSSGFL
Chain of UniProt O70423 (whole entry, looked up): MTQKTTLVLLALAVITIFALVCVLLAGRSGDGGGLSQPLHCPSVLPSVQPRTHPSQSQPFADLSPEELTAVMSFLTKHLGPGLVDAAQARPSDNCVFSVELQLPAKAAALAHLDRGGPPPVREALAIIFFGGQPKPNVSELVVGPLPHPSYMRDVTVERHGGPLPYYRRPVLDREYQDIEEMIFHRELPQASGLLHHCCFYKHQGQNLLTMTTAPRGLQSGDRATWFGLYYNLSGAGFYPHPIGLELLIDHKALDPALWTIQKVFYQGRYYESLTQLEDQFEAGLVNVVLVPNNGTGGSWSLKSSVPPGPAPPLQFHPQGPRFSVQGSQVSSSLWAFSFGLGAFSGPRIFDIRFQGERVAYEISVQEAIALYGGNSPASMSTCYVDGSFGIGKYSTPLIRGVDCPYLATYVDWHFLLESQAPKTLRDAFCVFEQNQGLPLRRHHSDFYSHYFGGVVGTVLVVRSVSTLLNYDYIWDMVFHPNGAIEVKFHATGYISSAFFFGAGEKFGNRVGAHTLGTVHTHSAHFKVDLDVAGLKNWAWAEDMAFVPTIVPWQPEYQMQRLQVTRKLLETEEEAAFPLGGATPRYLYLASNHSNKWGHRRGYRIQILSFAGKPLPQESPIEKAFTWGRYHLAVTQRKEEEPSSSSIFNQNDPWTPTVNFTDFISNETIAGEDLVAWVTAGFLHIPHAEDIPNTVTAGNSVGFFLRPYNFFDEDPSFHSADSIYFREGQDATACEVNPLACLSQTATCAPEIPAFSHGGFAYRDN

SMILES	tested on	test	test system	conditions	scale	endpoint	value
CC(C)OC(=O)c1cccc(C(=O)c2c[nH]c3ccccc23)n1	AHR (Homo sapiens, UniProt P35869)	reporter gene, agonist, XRE luciferase	HepG2	10 µM	reference: ITE	activity at 10 µM	42%
C=C(F)C(=O)N1CCN(c2nc(OC[C@@H]3CCCN3C)nc3c2CCN(c2cccc4cccc(Cl)c24)C3)C[C@@H]1CC#N	CYP3A4	substrate	recombinant human CYP isoforms			fraction metabolized	72%
NCc1cc2c(cc1F)C(=O)N(C1CCC(=O)NC1=O)C2 (stereo not drawn)	Amine oxidase [copper-containing] 3 (Mus musculus, UniProt O70423)	substrate, LC-MS/MS	recombinant mouse enzyme	10 µM, 20 h, pH 7.4		concentration	700 nM
Cc1cc(Nc2ncnc3ccc(NC4=NC(C)(C)CO4)cc23)ccc1Oc1ccn2ncnc2c1	CYP3A4		human, plasma	oral, 300 mg, day 1, single dose alone		CL/F, geometric mean	89.5 L/h
CC[C@H]1[C@@H](O)[C@@H]2[C@H](CC[C@]3(C)[C@@H]([C@H](C)CCNC(=O)NS(=O)(=O)c4ccc(C(C)(C)C)cc4)CC[C@@H]23)[C@@]2(C)CC[C@@H](O)C[C@@H]12	CYP3A4		human, plasma	dose not given, compound alone		Tmax median	4 h
Cc1cc(Nc2ccc(S(F)(F)(F)(F)F)cc2)n2nc(C(C)(F)F)nc2n1	Plasmodium falciparum	12-lead ECG	malaria patients	oral, 400 mg, increase above 30 ms		patients with QTcF increase	20%
CCc1cc(C(=O)NC)c2nccc(N3CCc4c(cc(Cn5ccnc5)cc4-c4cn(C)nc4C(F)(F)F)C3=O)c2c1			Sprague Dawley rats	oral, 100 mg/kg once daily, 7 days		blood HDW	21.8 ± 0.94 g/L
Cn1cc(-c2ccc(-c3cncc(Cl)c3N3CCC4(CCNC4=O)CC3)cc2)cn1	COLO 205	microarray, refers to: LGALS1		concentration not given, 6 h, gene set Galectin-1	reference: untreated cells	fold change in expression	4.24
NC1(C(=O)N[C@@H](CCO)c2ccc(Cl)cc2)CCN(c2nc[nH]c3nccc2-3)CC1			metastatic CRPC patients	480 mg b.i.d., any grade, treatment-related, added: enzalutamide 160 mg daily		incidence of decreased appetite	60%

Repeated from above:
SMILES	tested on	test	test system	conditions	scale	endpoint	value
C=C(F)C(=O)N1CCN(c2nc(OC[C@@H]3CCCN3C)nc3c2CCN(c2cccc4cccc(Cl)c24)C3)C[C@@H]1CC#N	CYP3A4	substrate	recombinant human CYP isoforms			fraction metabolized	72%
